Experimental data from different studies.
Parts stem from different laboratories: compare values within a part only. Substitutions count along the parent as printed.

Block 1
Target: ABI1, truncated, D143A, DHFR fusion (Arabidopsis thaliana)
Method: DHFR PCA, deep sequencing
Matrix: yeast
Notes: methotrexate growth selection, single substitutions
Added: (+)-ABA 4.8 µM
Baseline: wild-type fitted maximum
Direction: higher = stronger binding
Parent: PYL1, truncated, DHFR fusion (Arabidopsis thaliana); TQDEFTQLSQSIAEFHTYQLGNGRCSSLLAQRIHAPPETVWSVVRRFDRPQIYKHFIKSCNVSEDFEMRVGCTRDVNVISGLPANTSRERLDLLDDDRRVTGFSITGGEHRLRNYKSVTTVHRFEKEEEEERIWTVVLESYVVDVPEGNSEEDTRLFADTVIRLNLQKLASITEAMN; partner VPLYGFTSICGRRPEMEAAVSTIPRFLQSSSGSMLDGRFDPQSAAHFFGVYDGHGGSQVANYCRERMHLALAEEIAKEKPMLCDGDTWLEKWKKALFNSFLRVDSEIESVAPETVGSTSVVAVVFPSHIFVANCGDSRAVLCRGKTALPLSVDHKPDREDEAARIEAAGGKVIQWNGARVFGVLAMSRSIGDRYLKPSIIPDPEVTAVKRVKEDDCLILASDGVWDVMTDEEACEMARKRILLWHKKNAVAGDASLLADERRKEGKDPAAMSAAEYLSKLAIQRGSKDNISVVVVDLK
| Variant | relative binding score [%] |
| --- | --- |
| I57L | 51.8 |
| S150Y | -11.5 |
| F47G | -6.23 |
| D159T | -3.91 |
| E109G | 29.7 |
| L138F | 53.5 |
| K116H | 50.2 |
| K168G | 49.6 |
| S150H | 7.78 |
| L20A | 82.1 |
| S104F | -2.33 |
| D48L | -8.84 |
| S150I | -0.784 |

Block 2
Target: CCND2, cyclin fold, Cln2 fusion (human)
Method: yeast growth competition, sequencing
Matrix: yeast
Notes: weak parent motif
Baseline: not given
Direction: higher = stronger binding
Parent: CDKN1B docking peptide (human); PSACRNLFGPVDH
| Variant | normalised enrichment score |
| --- | --- |
| PSACINLFGPVDH [R5I] | 0.0921 |
| PSAFRNLFGPVDH [C4F] | 0.201 |
| ESACRNLFGPVDH [P1E] | -0.116 |
| PSACRNLFGLVDH [P10L] | 0.15 |
| PSACRNLFGPVDR [H13R] | 0.107 |
| PYACRNLFGPVDH [S2Y] | -0.133 |
| PSWCRNLFGPVDH [A3W] | 0.142 |
| PHACRNLFGPVDH [S2H] | 0.225 |
| PSACRNLFGPVDS [H13S] | 0.212 |
| PSACRNLFGPVDW [H13W] | 0.26 |
| PSACHNLFGPVDH [R5H] | 0.254 |
| PSACRNLFIPVDH [G9I] | 0.22 |
| PSACRNLFPPVDH [G9P] | -0.135 |
| PSACRNLFGPVFH [D12F] | 0.266 |

Block 3
Target: Sal-like protein 4, full length isoform A (SALL4, Homo sapiens, UniProt Q9UJQ4, residues 1-1053)
Chain of UniProt Q9UJQ4 (whole entry, looked up): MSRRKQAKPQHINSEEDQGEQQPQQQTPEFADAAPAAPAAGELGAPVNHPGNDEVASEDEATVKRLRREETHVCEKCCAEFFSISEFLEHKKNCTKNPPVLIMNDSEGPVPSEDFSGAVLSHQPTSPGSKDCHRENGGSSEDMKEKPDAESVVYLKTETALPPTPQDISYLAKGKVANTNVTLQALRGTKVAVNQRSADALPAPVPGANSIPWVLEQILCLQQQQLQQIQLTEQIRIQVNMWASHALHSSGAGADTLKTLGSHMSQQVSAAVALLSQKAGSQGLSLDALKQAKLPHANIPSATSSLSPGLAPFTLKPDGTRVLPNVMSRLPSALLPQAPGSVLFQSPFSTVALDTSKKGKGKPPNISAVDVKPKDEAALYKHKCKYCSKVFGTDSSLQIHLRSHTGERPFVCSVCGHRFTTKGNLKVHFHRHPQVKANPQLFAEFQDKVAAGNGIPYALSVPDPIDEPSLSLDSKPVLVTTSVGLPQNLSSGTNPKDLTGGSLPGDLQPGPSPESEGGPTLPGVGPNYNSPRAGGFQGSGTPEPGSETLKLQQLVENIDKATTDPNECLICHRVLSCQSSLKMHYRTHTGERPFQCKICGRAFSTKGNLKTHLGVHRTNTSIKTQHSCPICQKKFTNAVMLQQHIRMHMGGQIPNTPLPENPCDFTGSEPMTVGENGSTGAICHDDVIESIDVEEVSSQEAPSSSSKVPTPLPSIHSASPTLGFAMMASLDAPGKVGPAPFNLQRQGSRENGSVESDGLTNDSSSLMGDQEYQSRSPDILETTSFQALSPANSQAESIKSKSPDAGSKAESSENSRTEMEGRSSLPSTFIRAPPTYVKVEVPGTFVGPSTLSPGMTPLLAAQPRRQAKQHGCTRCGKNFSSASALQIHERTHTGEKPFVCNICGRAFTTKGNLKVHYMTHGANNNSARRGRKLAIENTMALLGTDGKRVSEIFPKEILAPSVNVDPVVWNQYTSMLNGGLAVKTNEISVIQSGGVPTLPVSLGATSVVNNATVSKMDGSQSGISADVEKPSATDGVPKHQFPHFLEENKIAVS
Method: universal PBM
Molecule type: double-stranded DNA, one strand shown
Matrix: in vitro
Tested at: 600 nM
Notes: 8-mer, flanks averaged, mean of replicates
Direction: higher = stronger binding
| Sequence | E-score |
| --- | --- |
| CGCATCAC | 0.0339 |
| AGGATACA | 0.0595 |
| AAGTAGAC | -0.106 |
| CGGTTCCC | -0.315 |
| AGCTCAAC | -0.232 |
| GGTAGCAC | -0.295 |
| ATACTGGA | 0.209 |
| CTGTGTAA | 0.163 |
| TCTATTCA | 0.259 |
| CAATCGTG | 0.0156 |
| CTTGACTA | 0.0423 |
| AAAAAATA | 0.437 |
| GTTCACAA | 0.201 |
| AGAATGCC | 0.0688 |
| GACAGTAC | 0.0574 |
| AACTAACT | 0.00924 |
| CTGACGAC | -0.1 |
| GAAGTGAC | -0.0629 |
| GCATACAA | 0.171 |
| GAAATGGA | 0.0279 |
| AAGGGTGA | -0.0626 |
| GTCTATAA | 0.247 |
| CCGTCAGC | -0.244 |
| CCATCAGG | -0.31 |
| CGGTAAAA | 0.116 |

Single results of other studies
| Substance | target | assay | test system | conditions | how to read | endpoint | result |
| --- | --- | --- | --- | --- | --- | --- | --- |
| PhoQ, residues 284 288 289 292 302 303 AAQSYM | PhoP, residues 12 14 15 18 19 QWHVF (Escherichia coli, UniProt P23836) | Sort-seq, refers to: YFP reporter | E. coli | PhoQ-PhoP variant library, added: 10 µM Mg2+ | baseline: high Mg2+ state, higher = stronger signaling | fold induction | 9.2 |

Excerpt of the above (block 2):
| Variant | normalised enrichment score |
| --- | --- |
| PSWCRNLFGPVDH [A3W] | 0.142 |
| PHACRNLFGPVDH [S2H] | 0.225 |
| PSACRNLFGPVDS [H13S] | 0.212 |
| PSACRNLFGPVDW [H13W] | 0.26 |
| PSACHNLFGPVDH [R5H] | 0.254 |
